{"data": "Experimental data from different studies", "note": "Parts stem from different laboratories: compare values within a part only. Changes are numbered by the printed parent chain."}
{"data": "Series 1", "target": "Fragile X messenger ribonucleoprotein 1, C-terminal low-complexity region (Fmr1, Mus musculus, UniProt P35922)", "method": "RNA Bind-n-Seq", "molecule type": "RNA", "medium": "in vitro", "tested at": "200 nM", "setting": "whole 134-nt RNA, ends assumed", "added": "150 mM LiCl", "baseline": "input library", "direction": "higher = stronger binding", "each molecule": "7-deaza-guanosine replaces G", "constant ends, left off below": "GGGAGUUCUACAGUCCGACGAUC … UGGAAUUCUCGGGUGUCAAGG"}
{"Oligonucleotide": "UGUGCUACACAUCGUAUGUACCGAAUCGGGCCCCCCCGGGGCCCCCCCGGGCCCCCCCGGGGAAAGUAUUAUGUUACGCCGUUCGGAUCU", "log2 enrichment": -2.33}
{"Oligonucleotide": "GUCCUGUGCUACACAUCGUAUGUACCGAAUCGGGGAGGGGAAAGGGGUUUUUUUGGGGAAAGUAUUAUGUUACGCCGUUCGGAUCUGCAC", "log2 enrichment": 0.941}
{"Oligonucleotide": "GCAGGAAGUAAAAACAAAUGCAAAUGCUUCGGAUAGUGGCAGGGGUGGGGGUUGCUAAGGAAAGGGUGGGAUGGGAGUGGGUAAAGAGUU", "log2 enrichment": 1.22}
{"Oligonucleotide": "UGUCCUGCAGGGUCGGACCGAUACCUGGAGAGCCGCGAUGCCUCUCGACUGAGUGGCCGGGACCCCUCCUCAUGGACAGUCGAGGAUGUG", "log2 enrichment": -3.84}
{"Oligonucleotide": "AAGUCCUGUGCUACACAUCGUAUGUACCGAAUCGGGGUUUGGGUUUGGGGUUUGGGAAAGUAUUAUGUUACGCCGUUCGGAUCUGCACUU", "log2 enrichment": -1.53}
{"Oligonucleotide": "GCAGGAAGUAAAGACAAAUGGAAAUGCUUCGGAUAGUGGCAGGGGUGGGGGUUGCUAAGGAAAGGGUGGGAUGGGAGUGGGUAAAGAGUU", "log2 enrichment": 1.44}
{"Oligonucleotide": "UAUGGACAAGCAUAAUGGAACAGACAGGUUUGUGAACCAGCAGUUUCAAGAGGAAAAGUUAAAUAAAUUGCAGAAGUUACUUAUUCUUUU", "log2 enrichment": -3.24}
{"Oligonucleotide": "CUCAAGUCCUGUGCUACACAUCGUAUGUACCGAAUCGGAAAGGAGGAAAAAGGAAAGUAUUAUGUUACGCCGUUCGGAUCUGCACUUCCA", "log2 enrichment": -0.812}
{"data": "Series 2", "target": "CCNB3, cyclin fold, Cln2 fusion (human)", "method": "yeast growth competition, sequencing", "medium": "yeast", "setting": "strong parent motif", "baseline": "not given", "direction": "higher = stronger binding", "starting sequence": "RBL2 docking peptide (human); STTRRRLFVENDS; partner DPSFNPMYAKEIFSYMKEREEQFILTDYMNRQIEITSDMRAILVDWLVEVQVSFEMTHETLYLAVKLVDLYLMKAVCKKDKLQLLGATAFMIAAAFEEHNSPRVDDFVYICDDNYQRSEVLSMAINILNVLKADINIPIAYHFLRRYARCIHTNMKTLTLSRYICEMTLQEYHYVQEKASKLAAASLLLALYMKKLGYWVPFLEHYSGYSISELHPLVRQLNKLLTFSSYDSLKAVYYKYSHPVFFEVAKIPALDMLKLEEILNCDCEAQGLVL"}
{"Change": "STTRIRLFVENDS [R5I]", "normalised enrichment score": 0.115}
{"Change": "STTRARAFVENDS [R5A L7A]", "normalised enrichment score": -0.00142}
{"Change": "SATRRRLFVENDS [T2A]", "normalised enrichment score": 0.974}
{"Change": "STTRRRLFVINDS [E10I]", "normalised enrichment score": 0.0206}
{"Change": "STTRRRKFVENDS [L7K]", "normalised enrichment score": -0.292}
{"Change": "FTTRRRLFVENDS [S1F]", "normalised enrichment score": 1.34}
{"Change": "STTRRRLFVSNDS [E10S]", "normalised enrichment score": 0.905}
{"Change": "STTRRPLFVENDS [R6P]", "normalised enrichment score": 0.00507}
{"Change": "STTRRRLFTENDS [V9T]", "normalised enrichment score": 1.38}
{"Change": "SITRRRLFVENDS [T2I]", "normalised enrichment score": -0.175}
{"Change": "STTRRRGFVENDS [L7G]", "normalised enrichment score": -0.531}
{"Change": "STTRRRLHVENDS [F8H]", "normalised enrichment score": -0.0767}
{"Change": "STTDRRLFVENDS [R4D]", "normalised enrichment score": -0.525}
{"Change": "STTRRRLFVEGDS [N11G]", "normalised enrichment score": 0.98}
{"Change": "STTQRRLFVENDS [R4Q]", "normalised enrichment score": 0.157}
{"data": "Series 3", "target": "RNA binding protein fox-1 homolog 2, RRM domain, GST-SBP tag (RBFOX2, Homo sapiens, UniProt O43251-10, residues 100-194)", "method": "RNA Bind-n-Seq", "molecule type": "RNA", "medium": "in vitro", "tested at": "365 nM", "setting": "natural RNA segment, single round, ends assumed", "baseline": "no-protein control", "direction": "higher = stronger binding", "constant ends, left off below": "GGGAGUUCUACAGUCCGACGAUC … UGGAAUUCUCGGGUGCCAA", "Target sequence (chain)": "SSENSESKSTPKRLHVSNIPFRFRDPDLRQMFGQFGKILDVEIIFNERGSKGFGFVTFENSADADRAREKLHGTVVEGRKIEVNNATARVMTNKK"}
{"Oligonucleotide": "CUUAACAAAGAAAACCUGGUGCUUGCAGUAUAGCUGUAGAAUUUUCUAUGUUCAAGACGUAGCUGCAAUAAAAUCCCAGUAGUAAAGGCUCAUUUAGCUCUGUAGCUUUC", "RBNS enrichment (R)": 0.374}
{"Oligonucleotide": "CAAACCUGGUUACUCAACGUUAGCAGUGAAGCGAGCCGGUGGUGACUGUGGCUGGAAUGUGGUGGGCUUGGUGACUUUUCUUUCUGCCCUCCCUUGAGUGCUCACCCUCC", "RBNS enrichment (R)": 0.376}
{"Oligonucleotide": "UGGGCAGGGACUGCCUCCUCCCGGAAUUCCUAAGAUCCGCCCAGCUGCCACCAUUUUCAUUGCUUUCCCCAGCAGCAUGAUGGGAACCCAAGCUGAGGGAUACAGGUCCU", "RBNS enrichment (R)": 2.68}
{"Oligonucleotide": "CCUAUAGCCUCAGCUUCAGAAGCCAGUAGCCUCCAGCCACAGAGUAUCGUGUUGUGGGCUGUUUGAGAAGACCUGUCCUCCUGAGCUGCUCCUUCCCAUGGUGCUCACAG", "RBNS enrichment (R)": 0.381}
{"Oligonucleotide": "CCUGCCUUACAGCAGGCAGGUUGUAUGGUGAGAAGAAUGAAGGCUGUUGUAGUUACAGGUGCUCUUACUGGGCUCUGCUCUAGUGUUCCACUUCCUAGAAGUUUAUCCAG", "RBNS enrichment (R)": 0.489}
{"Oligonucleotide": "CUGGUGCCUGAAGGAAACUCUGGGAAAUUGUACACUAACAGGGAGUUGAACCAUGAAGCUCUUCGUCAGAUGAAUGAAUACUUUUGAUUGGACAACAGAUAAUGGGUUAG", "RBNS enrichment (R)": 0.684}
{"Oligonucleotide": "CACUUCCCUACACAUCUAUGGGUAUCACACCCAAGACUACCCACCAAGCUCAUACAGGGAACCACACCCAACACUUAGACAUGCGAACAAGCAGCCCCCAGCGAGGGUCU", "RBNS enrichment (R)": 0.447}
{"Oligonucleotide": "AAGUUUAUAAAACAAUUUGCCAUAGGCAAAGCCAUUUAAAAAGUUCAUUCUGAAAUUAUUUCAUUUACCUACAGUGAAAUAAUUGUGAACUAAGUAGUCUUUCUGAAAAC", "RBNS enrichment (R)": 0.35}
{"data": "Mixed results"}
{"Substance": "PhoQ, residues 284 288 289 292 302 303 SLKLQV", "target": "PhoP, residues 12 14 15 18 19 QWHVF (Escherichia coli, UniProt P23836)", "test": "Sort-seq, measured: YFP reporter", "test system": "E. coli", "setting": "PhoQ-PhoP variant library, added: 10 µM Mg2+", "scale": "baseline: high Mg2+ state, higher = stronger signaling", "measurement": "fold induction", "value": 12.5}
{"note": "Repeated from above (series 3):"}
{"Oligonucleotide": "CUUAACAAAGAAAACCUGGUGCUUGCAGUAUAGCUGUAGAAUUUUCUAUGUUCAAGACGUAGCUGCAAUAAAAUCCCAGUAGUAAAGGCUCAUUUAGCUCUGUAGCUUUC", "RBNS enrichment (R)": 0.374}
{"Oligonucleotide": "CAAACCUGGUUACUCAACGUUAGCAGUGAAGCGAGCCGGUGGUGACUGUGGCUGGAAUGUGGUGGGCUUGGUGACUUUUCUUUCUGCCCUCCCUUGAGUGCUCACCCUCC", "RBNS enrichment (R)": 0.376}
{"Oligonucleotide": "UGGGCAGGGACUGCCUCCUCCCGGAAUUCCUAAGAUCCGCCCAGCUGCCACCAUUUUCAUUGCUUUCCCCAGCAGCAUGAUGGGAACCCAAGCUGAGGGAUACAGGUCCU", "RBNS enrichment (R)": 2.68}
{"Oligonucleotide": "CCUAUAGCCUCAGCUUCAGAAGCCAGUAGCCUCCAGCCACAGAGUAUCGUGUUGUGGGCUGUUUGAGAAGACCUGUCCUCCUGAGCUGCUCCUUCCCAUGGUGCUCACAG", "RBNS enrichment (R)": 0.381}
{"Oligonucleotide": "CCUGCCUUACAGCAGGCAGGUUGUAUGGUGAGAAGAAUGAAGGCUGUUGUAGUUACAGGUGCUCUUACUGGGCUCUGCUCUAGUGUUCCACUUCCUAGAAGUUUAUCCAG", "RBNS enrichment (R)": 0.489}
